Measurements collected from several papers.
Every numbered part comes from another study and shows a few of its results, in no order. Positions count from the first letter of the parent shown.

Set 1
Target: CCNB2, cyclin fold, Cln2 fusion (human)
Technique: yeast growth competition, sequencing
Sample: yeast
Setting: weak parent motif
Relative to: not given
Reading: higher = stronger binding
Measurement: normalised enrichment score
Starting sequence: CDKN1A docking peptide (human); SKACRRLFGPVDS; partner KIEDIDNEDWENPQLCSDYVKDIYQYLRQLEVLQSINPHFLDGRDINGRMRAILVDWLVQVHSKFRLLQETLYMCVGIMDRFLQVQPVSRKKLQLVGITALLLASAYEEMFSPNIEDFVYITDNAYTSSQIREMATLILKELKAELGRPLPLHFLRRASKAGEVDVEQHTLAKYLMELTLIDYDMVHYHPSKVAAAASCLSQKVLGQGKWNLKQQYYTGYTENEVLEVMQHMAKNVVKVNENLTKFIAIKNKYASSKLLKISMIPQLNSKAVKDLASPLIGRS
Variant = SKACGRLFGPVDS [R5G]; value = -0.159
Variant = SKACRTLFGPVDS [R6T]; value = 0.888
Variant = SKACRRSFGPVDS [L7S]; value = 0.232
Variant = SKACRRLFSPVDS [G9S]; value = 0.108
Variant = SKAGRRLFGPVDS [C4G]; value = 0.43
Variant = SKACKRLLGPVDS [R5K F8L]; value = 0.948
Variant = SLACRRLFGPVDS [K2L]; value = -0.217
Variant = SKACRRLWGPVDS [F8W]; value = -0.222
Variant = SKLCRRLFGPVDS [A3L]; value = 0.102
Variant = SKAMRRLFGPVDS [C4M]; value = 0.259
Variant = SKACRRYFGPVDS [L7Y]; value = 0.565
Variant = SKACRRLFGPVFS [D12F]; value = 0.208
Variant = SKACRCLFGPVDS [R6C]; value = -0.251
Variant = SYACRRLFGPVDS [K2Y]; value = 0.376
Variant = SKACRLLFGPVDS [R6L]; value = -0.0625
Variant = SKACRRLPGPVDS [F8P]; value = 0.0864
Variant = SKVCRRLFGPVDS [A3V]; value = 0.398
Variant = SKACRRLAGPVDS [F8A]; value = 0.217
Variant = SKARRRLFGPVDS [C4R]; value = 0.493
Variant = SKACRRLFGTVDS [P10T]; value = 0.128
Variant = SKACRRLFGEVDS [P10E]; value = 0.212
Variant = SWACRRLFGPVDS [K2W]; value = 0.117
Variant = SQACRRLFGPVDS [K2Q]; value = 0.214
Variant = SKACRRFFGPVDS [L7F]; value = 0.582
Variant = SKACRRLSGPVDS [F8S]; value = -0.0775

Set 2
Target: UBE2L6 UBC core domain (UniProt O14933)
Technique: yeast two-hybrid
Sample: yeast
Setting: mostly zero background
Relative to: not given
Reading: higher = stronger interaction
Measurement: lacZ reporter activity
B1: TRAF5 RING domain (UniProt O00463); chain FVERLEERYKCAFCHSVLHNPHQTGCGHRFCQHCILSLRELNTVPICPVDKEVIKSQEVFK
B2: RNF208 RING domain (UniProt Q9H0X6); chain SSAAAGEPLECPTCGHSYNVTQRRPRVLSCLHSVCEQCLQILYESCPKYKFISCPTCRRETVLFTDYG
B3: TRIM5 RING domain (UniProt Q9C035); chain LREVKLSPEGQKVDHCARHGEKLLLFCQEDGKVICWLCERSQEHRGHHTFLTEEVAREYQVKL
B4: VPS41 RING domain (UniProt P49754); chain KGVLVDEENICESCLSPILPSDAAKPFSVVVFHCRHMFHKECLPMPSMNSAAQFCNICSAKNRGPGSAI
B5: TRIM24 RING domain (UniProt O15164); chain EAARLNLLDTCAVCHQNIQSRAPKLLPCLHSFCQRCLPAPQRYLMLPAPMLGSAETPPPVPAPGSPVSGSSPFATQVGVIRCPVCSQECAERHII
B6: TRIM43 RING domain (UniProt Q96BQ3); chain FSHAFQKELTCVICLNYLVDPVTICCGHSFCRPCLCLSWEEAQSPANCPACREPSPKMDFKT
B7: DTX4 RING domain (UniProt Q9Y2E6); chain QKVRHPPDEDCTICMERLTAPSGYKGPQPTVKPDLVGKLSRCGHVYHIYCLVAMYNNGNKDGSLQCPTCKTIYGVKTGTQ
B8: NEURL1 RING domain (UniProt O76050); chain VTPGLGQWSDECTICYEHAVDTVIYTCGHMCLCYACGLRLKKALHACCPICRRPIKDIIKT
B9: TRIM40 RING domain (UniProt Q6P9F5); chain LQKDNQEEGVCPICQESLKEAVSTNCGHLFCRVCLTQHVEKASASGVFCCPLCRKPCSEEVLG
B10: TRIM4 RING domain (UniProt Q9C037); chain EAEDIQEELTCPICLDYFQDPVSIECGHNFCRGCLHRNWAPGGGPFPCPECRHPSAPAALRP
Construct (chain): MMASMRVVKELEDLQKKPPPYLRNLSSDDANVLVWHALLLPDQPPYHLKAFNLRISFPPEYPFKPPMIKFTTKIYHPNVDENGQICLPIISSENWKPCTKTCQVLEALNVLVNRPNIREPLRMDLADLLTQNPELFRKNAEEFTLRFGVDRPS
Sequence = GAAPGPEAAECLVCSELALLVLFSPCQHRTVCEECARRMKKCIRCQVVVSKKLRPD (MIB2 RING domain (UniProt Q96AX9)); value = 0
Sequence = B1 (TRAF5 RING domain); value = 0
Sequence = B2 (RNF208 RING domain); value = 0
Sequence = MPIRALCTICSDFFDHSRDVAAIHCGHTFHLQCLIQWFETAPSRTCPQCRIQVGKRTIIN (TRAIP RING domain (UniProt Q9BWF2)); value = 0
Sequence = B3 (TRIM5 RING domain); value = 0
Sequence = B4 (VPS41 RING domain); value = 0
Sequence = B5 (TRIM24 RING domain); value = 0
Sequence = B6 (TRIM43 RING domain); value = 0
Sequence = B7 (DTX4 RING domain); value = 0
Sequence = B8 (NEURL1 RING domain); value = 0
Sequence = B9 (TRIM40 RING domain); value = 0
Sequence = B10 (TRIM4 RING domain); value = 0
Sequence = VEPSEENSKDCVVCQNGTVNWVLLPCRHTCLCDGCVKYFQQCPMCRQFVQESFALC (CGRRF1 RING domain (UniProt Q99675)); value = 0

Set 3
Target: Prothrombin, mature alpha-thrombin (F2, Homo sapiens, UniProt P00734)
Technique: aptamer microarray, sandwich
Molecule type: DNA with 2'F-ANA
Sample: in vitro
Tested at: 200 nM
Setting: whole 15-mer aptamer, many near background
Together with: Cy3 exosite-II aptamer, 400 nM
Reading: higher = stronger binding
Measurement: mean fluorescence intensity
Strand: GGTTGGTGTGGTTGG
Modification = 2'F-ANA at 1 5 6 11 12 13 14 15; value = 57.5 a.u.
Modification = 2'F-ANA at 4 5 8 9 10 13 14 15; value = 153 a.u.
Modification = 2'F-ANA at 4 5 6 7 8 11 14; value = 92.5 a.u.
Modification = 2'F-ANA at 1 2 4 7 9 10 11 13 14 15; value = 67.7 a.u.
Modification = 2'F-ANA at 1 3 6 8 9 11 14 15; value = 123 a.u.
Modification = 2'F-ANA at 3 5 8 9 10 11 12 13 15; value = 61.5 a.u.
Modification = 2'F-ANA at 1 4 5 6 7 12 13 14; value = 45.9 a.u.
Modification = 2'F-ANA at 1 3 7 9 10 11 12 15; value = 108 a.u.
Modification = 2'F-ANA at 1 2 3 4 5 6 7 11 14 15; value = 51.4 a.u.
Modification = 2'F-ANA at 4 6 8 10 12 13 15; value = 90.6 a.u.
Modification = 2'F-ANA at 4 7 9 10 13 14; value = 66.7 a.u.
Modification = 2'F-ANA at 2 4 6 7 8 9 11 13 15; value = 176 a.u.
Modification = 2'F-ANA at 1 4 5 7 8 9 11 12 13 14 15; value = 47.2 a.u.
Modification = 2'F-ANA at 1 2 6 7 10 11 12 13 14 15; value = 51.2 a.u.
Modification = 2'F-ANA at 1 8 13 15; value = 192 a.u.
Modification = 2'F-ANA at 1 2 3 4 6 7 10 15; value = 65.3 a.u.
Modification = 2'F-ANA at 1 4 7 9 11 12 14 15; value = 55.9 a.u.
Modification = 2'F-ANA at 1 2 3 8 10 11 13 14 15; value = 63.8 a.u.
Modification = 2'F-ANA at 2 3 4 5 7 8 9 11 12 14 15; value = 55.4 a.u.
Modification = 2'F-ANA at 5; value = 88.2 a.u.

Set 4
Target: ABI1, truncated, D143A, DHFR fusion (Arabidopsis thaliana)
Technique: DHFR PCA, deep sequencing
Sample: yeast
Setting: methotrexate growth selection, single substitutions
Together with: (+)-ABA 0.39 µM
Relative to: wild-type fitted maximum
Reading: higher = stronger binding
Measurement: relative binding score
Starting sequence: PYL1, truncated, DHFR fusion (Arabidopsis thaliana); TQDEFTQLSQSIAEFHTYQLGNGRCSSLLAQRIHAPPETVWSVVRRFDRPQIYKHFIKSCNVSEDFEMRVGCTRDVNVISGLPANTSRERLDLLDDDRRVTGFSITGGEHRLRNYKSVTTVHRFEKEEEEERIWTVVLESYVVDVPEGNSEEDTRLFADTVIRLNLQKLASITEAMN
Variant = L164Y; value = 20.3%
Variant = E147A; value = 26.2%
Variant = F103T; value = -9.65%
Variant = R69A; value = 39.2%
Variant = L138P; value = -6.57%
Variant = R98Y; value = 0.717%
Variant = S9Y; value = 34.7%
Variant = S9H; value = 45.7%
Variant = D159H; value = -26.8%
Variant = R132H; value = 49.3%
Variant = S104L; value = -1.89%
Variant = E14V; value = -0.692%
Variant = Y115M; value = -8.66%

Set 5
Target: Histone acetyltransferase KAT6A, winged helix 2, GST fusion (KAT6A, Homo sapiens, UniProt Q92794, residues 85-181)
Technique: protein binding microarray
Molecule type: double-stranded DNA, one strand shown
Sample: in vitro
Tested at: not given
Setting: 8-mer, flanks averaged, mean of 2 arrays, mostly near background
Relative to: not given
Reading: higher = stronger binding
Measurement: E-score
Residues (chain): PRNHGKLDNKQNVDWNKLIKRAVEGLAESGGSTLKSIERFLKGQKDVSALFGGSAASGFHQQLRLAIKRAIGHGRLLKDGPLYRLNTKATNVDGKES
Strand = ACGTGCCG; value = -0.0425
Strand = ACCACTAT; value = -0.167
Strand = CGAAGTAG; value = 0.189
Strand = ATGGTTAA; value = -0.113
Strand = AAATAATA; value = 0.136
Strand = TCGATTAA; value = -0.0632
Strand = GTATTAGA; value = 0.0261
Strand = CTGTCTCA; value = -0.117
Strand = ACAATGTC; value = -0.0644
Strand = TCTCGAAA; value = 0.186
Strand = AGACGCGC; value = -0.0316
Strand = CTGTTATC; value = -0.205
Strand = GATGTGAA; value = -0.0411
Strand = CCTCTAAC; value = -0.0882
Strand = GCCTGTAC; value = 0.152
Strand = ACGCCCTA; value = 0.0205
Strand = AGTAAGAC; value = -0.0546
Strand = CCGGCCGG; value = 0.271
Strand = AACTTAGC; value = -0.0336
Strand = ATCATGGA; value = -0.0146
Strand = GCCAAGCC; value = 0.054
Strand = CAATTTAC; value = -0.0449
Strand = CCCGCTGA; value = -0.0539
Strand = GAGTGGAC; value = -0.0289
Strand = CGGCTCAC; value = -0.0225
